Experimental data gathered from unrelated publications.
Protocols differ between the studies behind these lines.
Target: Protein kinase C delta type (PRKCD, Homo sapiens, UniProt Q05655)

CC(C)=CC1OC(C)(C)C2C=C3C(=O)C(Cl)=CC(O)C3C3C(O)C4OC4C(=O)C132 (centres unmarked)  remaining binding (cell-free assay, competition with immobilised ligand; 10 µM): 75%
CCN1CCN(Cc2ccc(C(=O)Nc3ccc(C)c(NCc4cnc5[nH]ccc5c4OC)c3)cc2C(F)(F)F)CC1  remaining binding (binding, competition with immobilised ligand; 1 µM): 51%
CN1CCN(Cc2ccc(-c3ccc(CO[C@H]4CCC[C@@H]4NC(=O)c4cc(-c5cnn(C)c5)cnc4N)cc3)cc2)CC1  inhibition (enzyme activity, inhibitor; 0.1 µM): -4%
NC(=O)C[C@H]1CCc2sc3ncnc(O[C@H]4CC[C@H](N5CCOCC5)CC4)c3c21  inhibition (enzyme activity, inhibitor; 10 µM): 5%
COc1c(OCCCN2CCOCC2)ccc2c1N=C(NC(=O)c1cnc(N)nc1)N1CCN=C21  remaining activity (kinase activity, inhibitor; 1 µM; baseline: untreated control): 109%
CNC1C[S+]2CC[S+]3CC[S+](C1)[Ru-4]321([N]=C=S)[n]2c3ccc(OC)cc3c3c4c(c5cc(F)c[n+]1c5c32)C(=O)NC4=O (centres unmarked)  remaining binding (KinomeScan; 0.1 µM; baseline: untreated): 53%
C=CC(=O)N1Cc2nc(-c3cc(-c4cc(Cl)cnc4Cl)c(F)cc3F)n(-c3ccncn3)c2C1  inhibition (cell-free assay; 1 µM): 14.9%
COc1c(Cl)cccc1Nc1c(-c2ccncc2C#C[C@@]2(C)CCCN2C(=O)/C=C/CN(C)C)[nH]c2c1C(=O)NCC2  remaining binding (cell-free assay, competition with immobilised ligand; 3 µM): 69%
CN1CC[C@@H](COc2cnc(C#N)cc2-c2ccn3nc(NC(=O)C4CC4)cc3c2)C1  inhibition (enzyme activity, inhibitor; 1 µM): -1%
COc1ccc(NC(=O)Nc2ccc3c(c2)C(=O)N(C(C)CO)CC(C)C(CN(C)Cc2ccc4c(c2)OCO4)O3)cc1 (centres unmarked)  remaining activity (kinase activity, KinaseProfiler; 0.03 µM, species human; baseline: control): 105%
O=c1c(-c2ccc(Cl)c(CN3CCOCC3)c2)coc2cc(O)ccc12  remaining activity (enzyme activity, inhibitor; 1 µM): 114%
Nc1ncc(-c2cc(-c3cnn(CC(F)(F)F)c3)ncc2F)nc1C(=O)NC1CNCC(F)C1 (centres unmarked)  remaining activity (enzyme activity; 1 µM; baseline: DMSO control): 86%
Cc1ccc(-c2c(/C=C(\C#N)C(=O)NC(C)C)n(CCCO)c3ncnc(N)c23)cc1  remaining binding (cell-free assay, competition with immobilised ligand; 1 µM): 100%
CCn1cc(C(=O)O)c(=O)c2c(N)c(F)c(NC3CCCCC3)cc21  inhibition (kinase activity; 0.1 µM, together with: ATP at Km): -2.2%
